Published values from different studies.
Each numbered part is a random draw from the data of one study; scales do not carry over between parts.

Series 1
Target: Histone acetyltransferase KAT6A, winged helix 1, GST fusion (KAT6A, Homo sapiens, UniProt Q92794, residues 1-85)
Technique: protein binding microarray
Form: double-stranded DNA, one strand shown
Matrix: in vitro
Concentration: not given
Setting: 8-mer, flanks averaged, mean of 2 arrays, mostly near background
Reference: not given
Reading: higher = stronger binding
Construct (chain): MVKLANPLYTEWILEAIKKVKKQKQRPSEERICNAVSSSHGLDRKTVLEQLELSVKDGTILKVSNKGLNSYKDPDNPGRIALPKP
Sequence	E-score
ACCTGCGC	0.195
ACACTCGC	0.105
CAGTTGGG	-0.219
TGAGCCAA	-0.201
AATCTTTG	-0.194
AGACCGTA	0.129
ACAAATGC	-0.109
CACCTACA	-0.19
GCTTCCCC	0.112
ATCAATAC	-0.0424
GTCCCCCA	-0.147
ATTGCTAA	-0.0732
AGCATGAC	-0.0631
CGCGTGTA	0.218
ATGTCTCC	0.0765
AAGCTGTA	-0.00058
ACTGAAAC	-0.1
TATCATGA	-0.115
TCCAGGGA	-0.158
GCGTTATA	0.0575
GCATGGAA	0.044
AAGGTCAT	-0.0866
AACGTAGA	-0.0434
AGGTTGAC	-0.204
GCTGCAAC	0.104

Series 2
Target: RNA binding protein fox-1 homolog 2, RRM domain, GST-SBP tag (RBFOX2, Homo sapiens, UniProt O43251-10, residues 100-194)
Technique: RNA Bind-n-Seq
Form: RNA
Matrix: in vitro
Concentration: 365 nM
Setting: natural RNA segment, single round, ends assumed
Reference: no-protein control
Reading: higher = stronger binding
Construct (chain): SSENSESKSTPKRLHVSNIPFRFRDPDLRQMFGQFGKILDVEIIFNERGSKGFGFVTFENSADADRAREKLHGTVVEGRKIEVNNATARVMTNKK
Sequence	RBNS enrichment (R)
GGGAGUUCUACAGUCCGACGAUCUUGGUGAGGUUUGAAGUUUCAGUGUGUCUUCUACAAAAUGACAGCCACAUCUACAUUAGCUUGAGAAGCAGAGGAUUCUGUCAACAUGUGGCCAAGGGCUGUUGGACAAAUGGAAUUCUCGGGUGCCAA	0.711
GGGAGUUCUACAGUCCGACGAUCCCCUCAUGUUUGCUGGGACACUGCUGAGCACCCCUUGCUUACUUAGCUCAGUGAUGUUCCAGCUCCUGGCUAGGCUGCUCAGCCACUCAGCUAGACAAAAGAUCUGUGCCUGGAAUUCUCGGGUGCCAA	0.424
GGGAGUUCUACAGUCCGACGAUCUUAGCCCUAGGGUGGUCCCAACCAUGUGAUGUCUGGAGCAUAGGAUGCAUUCUUAUUGAAUACUAUCUUGGGUUUACCGUAUUUCCGACACACGAUAGUAAGGAGCAUUUUGGAAUUCUCGGGUGCCAA	0.307
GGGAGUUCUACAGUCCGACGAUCGAGCUGAUGCUUCAGAAGUGCAUCGCGAUUCAGAGUGACCAGCCUAAGAGCACAAAUUUAGUUUGGGUGUUCCUCAUCACAUGUAUAUAUGGACUAUCCAUCGAACUUAAUGGAAUUCUCGGGUGCCAA	0.422
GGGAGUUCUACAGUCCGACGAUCCUCACGGAUUAGGAAUUAACAGCCAAAGGCUCCCACGGAAGGGACCAGAAGGGGCUGAGCCCCACCCUGGAGUGGGCUUGCACCUGGUAGGUGUGCAAGAAGCCAUUUCCUGGAAUUCUCGGGUGCCAA	0.315
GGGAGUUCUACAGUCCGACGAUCGACUGUAUGGUCCGGGGGGUUCCUGCUGAGGAGAGGGGCUGAGGGUCCCAUGGAGAAGGGGCUGUAUCUGCCCUAUUACCUGCUAACCUAUACACUGAGAAGGAAGAAAGUGGAAUUCUCGGGUGCCAA	0.533
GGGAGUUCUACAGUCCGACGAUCUUGUUUUACUUUUGUAGCAUAAGGUUUUUGCUUUUGCUUUGCCUUAAGAGUUCCCUAGGGAGUUACCAGGGCUUUUCGUUUUGUGUAGCUUUUGCAGCAUGGAUCAAACAUGGAAUUCUCGGGUGCCAA	1.76
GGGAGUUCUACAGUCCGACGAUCCCCCAGUGAAGUCGGAGUCUUCCCCUGCUGAUCUGAGCCAAUCCGUAAGAGGACCCGUGAGGACACCAGAGUCUAGCCCAGAAAGCCCGGGAGGGCUGGAGAGCGAGUACUGGAAUUCUCGGGUGCCAA	0.291
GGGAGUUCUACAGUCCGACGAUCACAGGACACUGCUCCAACCCAAAUCAAUGUCCUCUCUAGCUGUGCAUCCCAAACCCACCUCUUGUCUCCAGCCAUGCCCAGGAUCAAUUCUAGAAUCAGAGGCUACCCCUUGGAAUUCUCGGGUGCCAA	1.09
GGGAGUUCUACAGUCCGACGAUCACUCAAAACACCUGUAUUUAAACCUUAAUAUGAAAAUCAUGCAAUUAAUAGUUACACAAGAUGUUUUCAUUACAAAAUAUGUACCUAUCUAUUGAUGGACUCUACAUCCUUGGAAUUCUCGGGUGCCAA	0.421
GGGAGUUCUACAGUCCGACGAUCGGGACAAAACUGAGCAGCAGAAUUCGUAUAGACAUUUACGUUUAAAUUCUAAAAGCCCAAUUGAGAUGUUCAGGGAGGGUUUGUUUUGCCCUUUGGCCUCAUGAAUGGGUUGGAAUUCUCGGGUGCCAA	0.535
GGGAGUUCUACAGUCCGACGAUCUAACUGGUUGCACUACCCGUGAAGAAUUCAUGGGACAGCCACUGCUGAGUGACUAACAUGAUGCACAUAACCAAACGGGGCCAAUGGUACAAACUUCACUCAUCAUUUGAUGGAAUUCUCGGGUGCCAA	0.289

Series 3
Target: Sal-like protein 4, full length isoform A (SALL4, Homo sapiens, UniProt Q9UJQ4, residues 1-1053)
Chain of UniProt Q9UJQ4 (whole entry, looked up): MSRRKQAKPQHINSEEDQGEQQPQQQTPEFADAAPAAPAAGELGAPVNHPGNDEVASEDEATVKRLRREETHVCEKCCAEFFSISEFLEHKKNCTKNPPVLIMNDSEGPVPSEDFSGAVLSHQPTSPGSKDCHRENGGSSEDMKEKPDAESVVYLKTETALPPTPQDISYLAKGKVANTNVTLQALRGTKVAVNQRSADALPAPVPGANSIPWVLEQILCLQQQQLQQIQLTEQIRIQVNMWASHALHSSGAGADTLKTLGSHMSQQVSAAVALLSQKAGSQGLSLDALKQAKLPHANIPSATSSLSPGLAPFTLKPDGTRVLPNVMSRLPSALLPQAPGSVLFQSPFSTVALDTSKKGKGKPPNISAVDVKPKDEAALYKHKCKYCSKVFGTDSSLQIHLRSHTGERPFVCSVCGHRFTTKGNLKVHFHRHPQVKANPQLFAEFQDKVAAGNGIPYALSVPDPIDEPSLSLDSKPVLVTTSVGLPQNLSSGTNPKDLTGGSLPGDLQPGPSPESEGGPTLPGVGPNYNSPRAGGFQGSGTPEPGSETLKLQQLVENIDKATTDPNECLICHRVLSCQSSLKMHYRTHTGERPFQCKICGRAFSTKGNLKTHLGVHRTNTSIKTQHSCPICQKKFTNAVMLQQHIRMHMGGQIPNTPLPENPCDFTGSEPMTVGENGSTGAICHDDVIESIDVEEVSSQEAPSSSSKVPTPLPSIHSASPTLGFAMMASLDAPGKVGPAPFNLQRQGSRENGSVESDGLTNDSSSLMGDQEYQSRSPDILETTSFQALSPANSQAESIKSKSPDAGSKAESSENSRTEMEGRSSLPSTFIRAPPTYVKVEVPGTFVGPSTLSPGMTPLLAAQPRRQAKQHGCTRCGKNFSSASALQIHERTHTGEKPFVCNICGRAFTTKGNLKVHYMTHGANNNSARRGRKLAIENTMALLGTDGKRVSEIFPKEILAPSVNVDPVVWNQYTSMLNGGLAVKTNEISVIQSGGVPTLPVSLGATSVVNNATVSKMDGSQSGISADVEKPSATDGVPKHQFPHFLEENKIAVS
Technique: universal PBM
Form: double-stranded DNA, one strand shown
Matrix: in vitro
Concentration: 600 nM
Setting: 8-mer, flanks averaged, mean of replicates
Reading: higher = stronger binding
Sequence	E-score
ACAATTGT	0.213
GGGACTTA	0.0195
AAGTTTGT	0.152
ACCGCCAG	-0.276
TCCAACGA	0.0379
CGGTGACG	-0.14
GGTTGACA	-0.0622
AATGGCCG	-0.256
ATATTCGA	0.276
GAAAGTCC	-0.183
CCGATACA	0.16
TCTTAAAA	0.25
ATGAACCC	-0.0368
AAAATGGA	0.226
CCCACGAC	-0.332
CATTGGGA	-0.00473
AAGTGCCA	-0.0402
CCCGTTAG	-0.283
ACTGTGGA	-0.0714
GCCAGGAA	-0.12
CACAGTAC	0.0221
GCAGTCAA	-0.16

Series 4
Target: Ras GTPase-activating protein-binding protein 1, RRM domain (G3BP1, Homo sapiens, UniProt Q13283)
Chain of UniProt Q13283 (whole entry, looked up): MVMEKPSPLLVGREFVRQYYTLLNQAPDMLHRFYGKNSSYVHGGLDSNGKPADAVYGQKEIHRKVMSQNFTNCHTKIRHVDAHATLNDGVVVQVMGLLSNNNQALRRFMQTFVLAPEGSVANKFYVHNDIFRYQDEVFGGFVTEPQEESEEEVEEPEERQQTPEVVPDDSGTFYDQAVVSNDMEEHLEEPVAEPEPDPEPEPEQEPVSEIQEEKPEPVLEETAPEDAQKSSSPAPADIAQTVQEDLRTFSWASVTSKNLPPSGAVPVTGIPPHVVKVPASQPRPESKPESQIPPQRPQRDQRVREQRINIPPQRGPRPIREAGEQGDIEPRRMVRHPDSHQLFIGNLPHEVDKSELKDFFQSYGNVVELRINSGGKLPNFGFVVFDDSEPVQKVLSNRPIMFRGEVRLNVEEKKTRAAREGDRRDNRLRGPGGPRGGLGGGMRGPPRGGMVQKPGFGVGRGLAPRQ
Technique: RNA Bind-n-Seq
Form: RNA
Matrix: in vitro
Concentration: 1 µM
Setting: whole 134-nt RNA, ends assumed
Together with: 150 mM KCl
Reference: input library
Reading: higher = stronger binding
Sequence	log2 enrichment
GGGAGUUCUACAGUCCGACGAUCAAGUCCUGUGCUACACAUCGUAUGUACCGAAUCGGGAAAAAGGGAGGGUUUUUGGGAAAGUAUUAUGUUACGCCGUUCGGAUCUGCACUUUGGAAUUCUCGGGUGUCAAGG	0.645
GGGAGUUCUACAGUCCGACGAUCUAACUUUAGAGGAGGAUCUGAUGGAUAUGGCAGUGGACGUGGAUUUGGGGAUGGCUAUAAUGGGUAUGGAGGAGGACCUGGAGGUGGCACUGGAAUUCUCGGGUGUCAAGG	-0.161
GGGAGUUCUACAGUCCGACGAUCUGGGAGGUGGAUUUUGGUUAUUUUUUUAGCUCAUUUCCAGGGGUGGGAAUUUUUUUUUAAUAUGUGUCAUGAAUAAAGUUGUUUUUGAAAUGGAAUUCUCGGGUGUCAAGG	1.79
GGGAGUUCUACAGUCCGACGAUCUGGCCCUGGUGGCAUGCGGGGAGGAAGAGGUGGCCUCAUGGAUCGUGGUGGUCCCGGUGGAAUGAUCAGAGGUGGCCGUGGUGGAGACAGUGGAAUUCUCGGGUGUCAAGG	0.817
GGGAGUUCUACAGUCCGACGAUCAAGUCCUGUGCUACACAUCGUAUGUACCGAAUCGGUUUUUGGUUUUUUUGGAAAGGAAAGUAUUAUGUUACGCCGUUCGGAUCUGCACUUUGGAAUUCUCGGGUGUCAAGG	-0.193
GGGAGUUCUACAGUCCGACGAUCCCUCAAGUCCUGUGCUACACAUCGUAUGUACCGAAUCGGUUGGGUUGGUUGGGAAAGUAUUAUGUUACGCCGUUCGGAUCUGCACUUCCAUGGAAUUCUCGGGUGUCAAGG	-0.275
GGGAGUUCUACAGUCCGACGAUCUAACUUUAGAGGAGGAUCUGCUGGAUAUGGCAGUGGACGUGGAUUUGGGGAUGGCUAUAAUGGGUAUGGAGGAGGACCUGGAGGUGGCAAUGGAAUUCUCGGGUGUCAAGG	-0.615

Series 5
Target: Interferon regulatory factor 5, full length, phosphomimetic (IRF5, Homo sapiens, UniProt Q13568-2, residues 1-514, K96S/S451D/S453D/S456D/S462D)
Technique: protein-binding microarray
Form: double-stranded DNA, one strand shown
Matrix: in vitro
Concentration: 250 nM
Setting: 60-bp whole probe
Together with: salmon DNA 0.4 mg/ml
Reference: random background probes
Reading: higher = stronger binding
Constant ends, left off below: GCCTAGCAC … GTCTTGATTCGCTTGACGCTGCTG
Sequence	log fluorescence [z-score]
ACCTGAGTCCCTATCTCCTCGTGCTAG	-0.522
TTAGATATCAGTTTCGATTCGTGCTAG	9.72
CTCCTGCAGCTGCCCTCCTGGTGCTAG	-0.598
GACGGTTTCGGGACTGGGAACGTGCTA	5.08
TTAGGACTGGGGACTAGGTTAGTGCTA	-0.494
TCAACATTCACCATGGCACTGTGCTAG	0.472
TTAGAACTGGGGACTTGATTAGTGCTA	-0.294
ATCCCATTAAATTTTAATAAGTGCTAG	0.0853
GACGGTATCCTAGTGCTGACGTGCTAG	-0.288
GACGGACTGGGTAGCGGGACGTGCTAG	-0.779
TTGGGTATCGGGACTGGGTTAGTGCTA	1.54
TCACCTCTGGGATCCCAGACTGTGCTA	-0.588
TTAGGTTTCACTTTCCAAAAGTGCTAG	7.32

A few entries again (series 1):
Sequence	E-score
CAGTTGGG	-0.219
TGAGCCAA	-0.201
AATCTTTG	-0.194
AGACCGTA	0.129
ACAAATGC	-0.109
CACCTACA	-0.19
GCTTCCCC	0.112
ATCAATAC	-0.0424
GTCCCCCA	-0.147
ATTGCTAA	-0.0732
AGCATGAC	-0.0631
